Published values gathered from unrelated publications.
Lines come from different studies, so protocols differ. ± gives the spread as reported.
Chain of UniProt O75164 (whole entry, looked up): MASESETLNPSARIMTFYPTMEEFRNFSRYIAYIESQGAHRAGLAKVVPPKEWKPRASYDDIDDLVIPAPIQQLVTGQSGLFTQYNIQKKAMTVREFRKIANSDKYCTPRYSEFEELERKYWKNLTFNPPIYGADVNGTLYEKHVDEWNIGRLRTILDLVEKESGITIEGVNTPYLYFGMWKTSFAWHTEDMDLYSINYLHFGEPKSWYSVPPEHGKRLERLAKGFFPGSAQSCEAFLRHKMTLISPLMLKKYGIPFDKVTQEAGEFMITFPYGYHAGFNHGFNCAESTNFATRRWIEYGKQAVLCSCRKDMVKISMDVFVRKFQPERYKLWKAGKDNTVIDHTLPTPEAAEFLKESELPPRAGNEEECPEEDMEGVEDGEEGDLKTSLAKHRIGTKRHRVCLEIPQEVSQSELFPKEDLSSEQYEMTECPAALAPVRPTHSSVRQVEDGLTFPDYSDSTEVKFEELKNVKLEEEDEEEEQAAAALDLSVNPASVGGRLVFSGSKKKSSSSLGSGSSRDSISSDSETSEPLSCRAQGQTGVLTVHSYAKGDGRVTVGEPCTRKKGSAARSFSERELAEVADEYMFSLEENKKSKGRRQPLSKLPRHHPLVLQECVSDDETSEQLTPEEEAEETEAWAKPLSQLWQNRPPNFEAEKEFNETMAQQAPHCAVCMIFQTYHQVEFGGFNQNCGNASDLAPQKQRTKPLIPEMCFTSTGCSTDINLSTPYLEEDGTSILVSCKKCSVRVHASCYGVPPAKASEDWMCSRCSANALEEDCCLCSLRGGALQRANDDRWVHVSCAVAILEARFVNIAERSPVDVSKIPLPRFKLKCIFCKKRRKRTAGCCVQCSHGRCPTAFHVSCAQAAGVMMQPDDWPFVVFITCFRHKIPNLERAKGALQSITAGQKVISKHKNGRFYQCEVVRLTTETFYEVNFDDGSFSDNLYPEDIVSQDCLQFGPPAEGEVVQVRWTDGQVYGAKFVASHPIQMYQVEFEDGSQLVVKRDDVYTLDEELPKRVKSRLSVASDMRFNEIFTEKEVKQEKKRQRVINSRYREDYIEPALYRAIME
Chain of UniProt P14416 (whole entry, looked up): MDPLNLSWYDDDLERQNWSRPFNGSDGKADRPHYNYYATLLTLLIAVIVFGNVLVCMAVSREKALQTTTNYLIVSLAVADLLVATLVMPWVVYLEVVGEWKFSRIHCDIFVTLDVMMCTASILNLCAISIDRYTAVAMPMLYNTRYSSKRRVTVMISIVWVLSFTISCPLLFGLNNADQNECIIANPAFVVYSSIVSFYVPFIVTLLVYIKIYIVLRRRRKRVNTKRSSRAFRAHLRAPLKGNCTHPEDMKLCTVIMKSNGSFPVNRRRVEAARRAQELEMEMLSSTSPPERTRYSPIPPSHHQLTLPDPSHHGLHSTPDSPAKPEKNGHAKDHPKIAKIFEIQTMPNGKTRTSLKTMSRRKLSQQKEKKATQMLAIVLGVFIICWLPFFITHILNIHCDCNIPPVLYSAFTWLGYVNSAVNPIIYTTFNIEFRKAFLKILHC

Molecule	tested on	test	test system	setting	scale	measurement	result
CCCC(CCC)C(=O)O			mouse, pilocarpine-induced seizures	oral, 300 mg/kg, 24 h		survival	60%
O=C1CCc2ccc(OCCCCN3CCCN(c4cccc(Cl)c4Cl)CC3)nc2N1	D(2) dopamine receptor (DRD2, Homo sapiens, UniProt P14416)	β-arrestin recruitment, agonist	HTLA		reference: quinpirole	Emax	40 to 50%
SWIIELLE (ELF3 137-144 (Homo sapiens, UniProt P78545))	MED23 fragment (Homo sapiens)	competitor, fluorescence polarisation	peptide			Ki	4.27 µM
CCCCc1oc2ccccc2c1C(=O)c1cc(I)c(OCCN)c(I)c1	Lysine-specific demethylase 4A, double tudor domain (KDM4A, Homo sapiens, UniProt O75164)	fluorescence polarization				IC50	72 ± 26 µM
Cc1ccc(C=NNC(=S)N[N+](=O)[O-])cc1	Leishmania tropica	parasite growth, MTT		72 h, promastigote		IC50	331 µM

For quick reference, copied from above:
Molecule	tested on	test	test system	setting	scale	measurement	result
CCCC(CCC)C(=O)O			mouse, pilocarpine-induced seizures	oral, 300 mg/kg, 24 h		survival	60%
